Experimental data pooled from the literature.
Lines come from different studies, so protocols differ. ± gives the spread as reported.

With `CN[C@](C)(C[18F])C(=O)O` the tracer uptake was 22 %ID/g (DU-145 tumour model; host not given, pancreas; 1 h, tumour-bearing).
For `CC(=O)N[C@@H](Cc1c[nH]c2ccccc12)C(=O)NCC(=O)N[C@@H](C)C(=O)N[C@H]1CSCC(=O)Nc2ccc(cc2)N=Nc2ccc(c(S(=O)(=O)O)c2)-c2ccc(cc2S(=O)(=O)O)N=Nc2ccc(cc2)NC(=O)CSC[C@@H](C(=O)N[C@@H](CCCNC(=N)N)C(=O)N[C@@H](CCC(=O)O)C(=O)N[C@@H](C)C(=O)N[C@@H](CCC(N)=O)C(N)=O)NC(=O)[C@H](C)NC(=O)[C@H](C)NC(=O)[C@H](CCC(=O)O)NC(=O)[C@H](CCCNC(=N)N)NC(=O)[C@H](C)NC(=O)[C@H](C)NC(=O)[C@H](C)NC(=O)[C@H](CCC(=O)O)NC(=O)[C@H](CCCNC(=N)N)NC(=O)[C@H](C)NC(=O)[C@H](C)NC(=O)[C@H](C)NC(=O)[C@H](CCC(=O)O)NC(=O)[C@H](CCCNC(=N)N)NC(=O)[C@H](C)NC(=O)[C@H](C)NC(=O)[C@H](C)NC(=O)[C@H](CCC(=O)O)NC1=O`, “thermal relaxation half-life” read 29.1 ± 1.2 min (cis-to-trans reversion, UV-Vis absorbance; 10 mM phosphate buffer; pH 7.0, 20 °C, added: 365 nm irradiation).
With `CC[C@H](C)[C@@H]1NC(=O)[C@@H](NC(=O)CNC(=O)c2ccc(F)cc2)CSSC[C@@H]2NC(=O)[C@H](C)NC(=O)CNC(=O)[C@@H]3CCCN3C(=O)[C@@H]3CSSC[C@@H](C(=O)NCC(=O)O)NC(=O)[C@H](Cc4ccc(O)cc4)NC(=O)CNC(=O)[C@H](CC(N)=O)NC(=O)CNC(=O)[C@H](CCCNC(=N)N)NC(=O)[C@H](CSSC[C@H](NC(=O)[C@H](CCCNC(=N)N)NC(=O)[C@H](Cc4ccccc4)NC(=O)[C@H](CC(C)C)NC(=O)[C@H](CC(C)C)NC(=O)[C@H]([C@@H](C)O)NC(=O)CNC(=O)[C@H](CC(C)C)NC(=O)[C@H](CC(=O)O)NC(=O)[C@H]([C@@H](C)O)NC(=O)[C@H](CCCNC(=N)N)NC(=O)[C@H](CCSC)NC(=O)[C@H](CC(N)=O)NC(=O)[C@H](CC(C)C)NC1=O)C(=O)N[C@@H](CCCNC(=N)N)C(=O)N[C@@H](CCCNC(=N)N)C(=O)N[C@@H](CC(=O)O)C(=O)N[C@@H](CO)C(=O)N[C@@H](CC(=O)O)C(=O)N3)NC(=O)[C@H]([C@@H](C)CC)NC2=O` [fluorine-18 labelled] the tumour uptake was 1.4 ± 0.3 %ID/g (γ-counting; mouse, BxPC-3 xenograft (integrin αvβ6-positive), excised tumour; 2 h post injection).
`C[C@@H](O)[C@H](NC(=O)[C@H](CCCCN)NC(=O)[C@H](Cc1c[nH]c2ccccc12)NC(=O)CN)C(=O)N[C@@H](CCCNC(=N)N)C(=O)NC(C)(C)C(=O)N[C@@H](CCCNC(=N)N)C(=O)NC(C)(C)C(=O)N[C@H](C(=O)N[C@@H](CO)C(=O)N[C@@H](Cc1c[nH]cn1)C(=O)N[C@@H](Cc1ccc(O)cc1)C(=O)NCC(=O)O)[C@@H](C)O` has an IC50 of 1000 nM (platelet aggregation; human whole blood; added: collagen I).
`CC(C)C[C@H](NC(=O)[C@H](C)NC(=O)CNC(=O)[C@H](CO)NC(=O)CNC(=O)[C@H](CCCNC(=N)N)NC(=O)[C@H](CCCNC(=N)N)NC(=O)[C@H](CCCNC(=N)N)NC(=O)[C@H](CCC(N)=O)NC(=O)[C@H](CCCNC(=N)N)NC(=O)[C@H](CCCNC(=N)N)NC(=O)[C@H](CCCCN)NC(=O)[C@H](CCCCN)NC(=O)[C@H](CCCNC(=N)N)NC(=O)CNC(=O)[C@@H](N)Cc1ccc(O)cc1)C(=O)N[C@@H](CO)C(=O)N[C@H](C(=O)N[C@@H](CCC(=O)O)C(=O)N[C@@H](CCCNC(=N)N)C(=O)O)[C@@H](C)O`: “infarct size reduction” about 70% (TTC staining; isolated rat heart; concentration not given, given during reperfusion only; relative to: control peptides).
The uptake of `CCCC[C@H](NC(=O)CNC(=O)CNC(=O)c1ccc(NN)nc1)C(=O)N[C@H]1CC(=O)NCCCC[C@@H](C(N)=O)NC(=O)[C@H](Cc2c[nH]c3ccccc23)NC(=O)[C@H](CCCNC(=N)N)NC(=O)[C@@H](Cc2ccccc2)NC(=O)[C@H](Cc2c[nH]cn2)NC1=O` [technetium-99m labelled] is reported as 0.13 ± 0.09 %ID/g (C57 mouse, B16/F1 melanoma, spleen; 2 h, added: NDP-MSH 6.07 nmol blockade).
`COC(=O)C[C@](O)(CCCC(C)(C)OC(C)=O)C(=O)O[C@@H]1C(OC)=C[C@]23CCCN2CCc2cc4c(cc2[C@H]13)OCO4`: Ki67 level “decreased” (immunofluorescence; BALB/c nude mouse, KP-4 xenograft, tumour; dose not given).
`Cc1nc(C)c(C=[N+]([O-])C(C)(C)C)nc1C` — result for “TH-positive neuron count”: 27.1% (stereological counting; mouse MPTP model, substantia nigra; 30 mg/kg; increase).
`N=C(N)NCCC[C@@H]1NC(=O)[C@H](CCCCNC(=O)CNC(=O)CNC(=O)CNC(=O)CC[C@H](NC(=O)CCOCCOCCOCCOCCNC(=O)CC[C@H](NC(=O)CN2CCN(CC(=O)O)CCN(CC(=O)O)CCN(CC(=O)O)CC2)C(=O)NCCOCCOCCOCCOCCC(=O)N[C@@H](CCC(=O)NCC(=O)NCC(=O)NCC(=O)NCCCC[C@@H]2NC(=O)[C@@H](Cc3ccccc3)NC(=O)[C@H](CC(=O)O)NC(=O)CNC(=O)[C@H](CCCNC(=N)N)NC2=O)C(=O)NCC(=O)NCC(=O)NCC(=O)NCCCC[C@@H]2NC(=O)[C@@H](Cc3ccccc3)NC(=O)[C@H](CC(=O)O)NC(=O)CNC(=O)[C@H](CCCNC(=N)N)NC2=O)C(=O)NCC(=O)NCC(=O)NCC(=O)NCCCC[C@@H]2NC(=O)[C@@H](Cc3ccccc3)NC(=O)[C@H](CC(=O)O)NC(=O)CNC(=O)[C@H](CCCNC(=N)N)NC2=O)NC(=O)[C@@H](Cc2ccccc2)NC(=O)[C@H](CC(=O)O)NC(=O)CNC1=O` [indium-111 labelled] — result for “tumour to bone ratio”: 7.02 ± 1.39 (female athymic nude mouse; intravenous, 24 h, U-87 MG glioma xenograft; relative to: tumour over bone).
The IC50 of `CCCCCCCCC(=O)NCc1ccc(O)c(OC)c1` is reported as 2.74 ng/mL (mAb 5-D8; antibody binding, indirect competitive ELISA; added: coating antigen hapten 4-OVA).
The IC50 of `C=C(NC(=O)C(=C)NC(=O)c1csc(C2=NC3c4csc(n4)C4NC(=O)c5csc(n5)C(C(C)(O)C(C)O)NC(=O)C5CSC(=N5)C(=CC)NC(=O)C(C(C)O)NC(=O)c5csc(n5)C3(CC2)NC(=O)C(C)NC(=O)C(=C)NC(=O)CNC(=O)C(C(C)CC)NC2C=Cc3c(C(C)O)cc(nc3C2O)C(=O)OC4C)n1)C(N)=O` (stereo not drawn) is reported as 460 ± 50 nM (protein synthesis, coupled transcription-translation, refers to: luciferase; Escherichia coli S30 extract; 1 h, 37 °C).
`C[C@@H](NC(=O)[C@@H](CCC(N)=O)NC(=O)[C@@H](C)NC(=O)[C@@H](CCCCN)NC(=O)[C@@H](CCC(N)=O)NC(=O)[C@@H](C)NC(=O)[C@@H](CCCCN)NC(=O)[C@@H](CCC(N)=O)NC(=O)[C@@H](C)NC(=O)[C@@H](CCC(N)=O)NC(=O)[C@@H](CCCCN)NC(=O)[C@@H](C)NC(=O)[C@@H](CCC(N)=O)NC(=O)[C@@H](CCCCN)NC(=O)[C@@H](C)NC(=O)[C@@H](CCC(N)=O)NC(=O)[C@@H](C)NC(=O)[C@@H](CCCCN)NC(=O)[C@@H](CCC(N)=O)NC(=O)[C@@H](C)NC(=O)[C@@H](CCCCN)NC(=O)[C@@H](CO)NC(=O)[C@@H](Cc1ccc(O)cc1)NC(=O)CNC(=O)CNC(=O)CN)C(=O)N[C@H](CCCCN)C(=O)N[C@H](CCC(N)=O)C(=O)N[C@H](C)C(=O)N[C@H](CCCCN)C(=O)N[C@H](CCC(N)=O)C(=O)O` has a binding ratio of 0.035 (human ALκ4 amyloid extract; 1 h, room temperature; relative to: 1 M NaCl over PBS).

A few entries again:
`CC(C)C[C@H](NC(=O)[C@H](C)NC(=O)CNC(=O)[C@H](CO)NC(=O)CNC(=O)[C@H](CCCNC(=N)N)NC(=O)[C@H](CCCNC(=N)N)NC(=O)[C@H](CCCNC(=N)N)NC(=O)[C@H](CCC(N)=O)NC(=O)[C@H](CCCNC(=N)N)NC(=O)[C@H](CCCNC(=N)N)NC(=O)[C@H](CCCCN)NC(=O)[C@H](CCCCN)NC(=O)[C@H](CCCNC(=N)N)NC(=O)CNC(=O)[C@@H](N)Cc1ccc(O)cc1)C(=O)N[C@@H](CO)C(=O)N[C@H](C(=O)N[C@@H](CCC(=O)O)C(=O)N[C@@H](CCCNC(=N)N)C(=O)O)[C@@H](C)O`: “infarct size reduction” about 70% (TTC staining; isolated rat heart; concentration not given, given during reperfusion only; relative to: control peptides).
The uptake of `CCCC[C@H](NC(=O)CNC(=O)CNC(=O)c1ccc(NN)nc1)C(=O)N[C@H]1CC(=O)NCCCC[C@@H](C(N)=O)NC(=O)[C@H](Cc2c[nH]c3ccccc23)NC(=O)[C@H](CCCNC(=N)N)NC(=O)[C@@H](Cc2ccccc2)NC(=O)[C@H](Cc2c[nH]cn2)NC1=O` [technetium-99m labelled] is reported as 0.13 ± 0.09 %ID/g (C57 mouse, B16/F1 melanoma, spleen; 2 h, added: NDP-MSH 6.07 nmol blockade).
